Assay results from different studies.
Each line is one published result; not all experiments were run side by side. ± gives the spread as reported.
CHRM2: Muscarinic acetylcholine receptor M2 (CHRM2, Homo sapiens, UniProt P08172)
FAAH: Fatty-acid amide hydrolase 1 (FAAH, Homo sapiens, UniProt O00519)
PGR: Progesterone receptor (PGR, Homo sapiens, UniProt P06401)
HDAC8: Histone deacetylase 8 (HDAC8, Homo sapiens, UniProt Q9BY41)

COc1cc(C(=O)NS(=O)(=O)c2ccc(C(F)(F)F)cc2)ccc1Cc1cn(C)c2ccc(NC(=O)OC3CCCC3)cc12  IκB degradation (Tumor necrosis factor receptor superfamily member 1A (Homo sapiens, UniProt P19438); TNF-induced IκB degradation, inhibitor; HEK293 cells; 0.01 to 500 nM): inhibited
COCCN1CCN(C(=S)c2ccc(-c3cc(Cl)ccc3Cl)o2)CC1  activity (NPR2 (Homo sapiens, UniProt P20594); positive allosteric modulator, cGMP HTRF; HEK293 expressing GC-B; concentration not given, added: CNP): inactive
CCCCOc1ccc(C(=O)OCCN2CC=CCC2)cc1  dissociation half-time (CHRM2; recovery of [3H]NMS binding after washing; membranes; 100 µM): 0.2 ± 0.1 h
CCCCCCCCSc1nc2c([nH]1)c(=O)n(C)c(=O)n2C  remaining activity (Nr3c1 (Rattus norvegicus, UniProt P06536); reporter gene, antagonist, MMTV-luciferase; T47D/A1-2; 10 µM, 24 h, added: 5 nM dexamethasone; reference: maximal activity): 92%
C=C1CN(S(=O)(=O)c2ccc(C)cc2)CCCN(Cc2ccccc2)CCCN(S(=O)(=O)c2ccc(C)cc2)C1  protein level ratio (DnaJ homolog subfamily C member 3 (DNAJC3, Homo sapiens, UniProt Q13217); SILAC mass spectrometry; SUP-T1, crude membrane fraction; 10 µM, 17 h, reverse labelling; reference: DMSO over compound): 2.93
CCCCCCCCOP(=O)(Cc1ccccc1)O[C@@H]1O[C@H](CO)[C@@H](O)[C@H](O)[C@H]1F (stereo partly drawn)  kinact/Ki (GBA1 (Homo sapiens, UniProt P04062); enzyme activity, irreversible inhibitor; pH 5.5, 37 °C, added: 2,4-dinitrophenyl beta-D-glucopyranoside): 607 M⁻¹ s⁻¹
CC(C)[C@H](NC(=O)[C@H](CCCCN)NC(=O)[C@H](C)NC(=O)[C@H](CCCCN)NC(=O)CNC(=O)[C@H](CCCNC(=N)N)NC(=O)[C@@H](NC(=O)[C@H](CCCCN)NC(=O)[C@@H](N)CO)[C@@H](C)O)C(=O)N[C@H](C(=O)NCC(=O)N[C@@H](CS)C(=O)N[C@@H](Cc1c[nH]c2ccccc12)C(=O)N[C@@H](CCCCN)C(=O)O)[C@@H](C)O  koff (TPM1/ACTA1, with F-actin (Oryctolagus cuniculus, UniProt P58772+P68135); binding, LSPR; F-actin-tropomyosin filament; pH 7.0): 0.0256 ± 0.00522 s⁻¹
O=C(Nc1ccc(C(=O)Nc2ccc(C(=O)Nc3ccc(S(=O)(=O)O)c4cc(S(=O)(=O)O)cc(S(=O)(=O)O)c34)cc2)cc1)Nc1ccc(C(=O)Nc2ccc(C(=O)Nc3ccc(S(=O)(=O)O)c4cc(S(=O)(=O)O)cc(S(=O)(=O)O)c34)cc2)cc1  Hill slope (F11 (Homo sapiens, UniProt P03951); enzyme activity, inhibitor, FXIa chromogenic substrate hydrolysis; pH 7.4, 25–37 °C): 2.3 ± 0.4
CNc1ccccc1C(=O)O[C@H]1C[C@H](n2cnc3c(N)ncnc32)O[C@@H]1COP(=O)(O)OP(=O)(O)O  dissociation rate constant (Unconventional myosin-Va (Gallus gallus, UniProt Q02440, D297C/G292C/I296C/S293C/V295G); stopped-flow FRET; 4 °C, added: EDTA 4 mM): 14.1 ± 0.1 s⁻¹
S=C(Nc1ccc(Cl)cc1)Nc1ccc(-c2nc3ccccc3s2)cc1  effective concentration (Alpha-synuclein (SNCA, Homo sapiens, UniProt P37840); oligomerization, PICUP cross-linking; range 3.13 to 50 µM tested, added: alpha-synuclein 60 µM): 12.5 to 50 µM
CCCCCCCC(=O)Nc1ccc(C#N)nc1C  specific activity (FAAH; enzyme activity, substrate; 50 µM, pH 8, 37 °C): 12 pmol/min/µg
CC(C)(C)CCN1C[C@@H]2[C@@H](CNC(=O)c3cc(Cl)cc(Cl)c3)[C@@H]2C1.Cl  Hill slope (CACNA1C (Oryctolagus cuniculus, UniProt P15381, V1063M); calcium current inhibition, whole-cell patch clamp; HEK-293T cells): 0.72 ± 0.29
CC(=O)OC1(C(C)=O)CCC2C3C=C(CO)C4=CC(=O)CCC4(C)C3CCC21C (stereo not drawn)  mRNA level (PGR; item: E2F1; T47D; 100 nM, 8 h; reference: ethanol vehicle): 2 ± 0.4 fold change
CCCCCCCC(=O)Nc1ccc(OC)nc1C  apparent Vmax (Cocaine esterase (CES2, Homo sapiens, UniProt O00748); enzyme activity, substrate; pH 8, 37 °C, substrate 3.13 to 100 µM): 14 pmol/min/µg
O=C(NC[C@@H](Cc1ccccc1)N1CCC(O)(C(F)(F)F)CC1)C1(c2ccc(Cl)cc2)CCCC1  activation (TRPA1 (Homo sapiens, UniProt O75762, I946M); calcium influx, agonist; concentration not given, I946M mutant): inhibited
COc1ccccc1N1CCN(c2nc3c(c(=O)[nH]2)CCCC3)CC1  enzyme activity (PARP1 (Homo sapiens, UniProt P09874); inhibitor, ELISA; up to 20 µM): no inhibition
CSCC[C@H](NC(=O)[C@H](CCCCN)NC(=O)[C@@H]1CCCN1C(=O)[C@H](CCC(=O)O)NC(=O)[C@H](CO)NC(=O)[C@H](CCCNC(=N)N)NC(=O)[C@H](C)NC(=O)[C@H](CS)NC(=O)CNC(=O)[C@@H](NC(=O)[C@@H]1CCCN1C(=O)[C@H](CC(N)=O)NC(=O)[C@@H](N)C(C)C)[C@@H](C)O)C(=O)N[C@@H](CO)C(N)=O  kon (WDR5 (Homo sapiens, UniProt P61964); binding, SPR): 490000 M⁻¹ s⁻¹
Cc1nc(N(C)C)nc(C)c1O  relative inhibitory potency (PTGS1 (Ovis aries, UniProt P05979); prostaglandin biosynthesis, inhibitor; concentration not given; reference: paracetamol): 25 fold
CCCC[C@H](C)/C=C(C)/C=C/C(=O)O  current density (TRPA1 (Homo sapiens, UniProt O75762); ion current, inhibitor, whole-cell patch clamp; HEK-293T; 5 µM, -100 mV, added: 100 µM AITC): -25 ± 6.1 pA/pF
CC12CC3CC(C)(C1)CC(NC(=O)Nc1ccc(C(=O)N4CCCC(C(N)=O)C4)cc1F)(C3)C2 (stereo not drawn)  lipophilic ligand efficiency (EPHX2 (Homo sapiens, UniProt P34913)): 7.09
[3H]CC([3H])C(=O)NCc1cc(C(=O)NCCN2CCC(N3CCC(n4c(=O)[nH]c5ccccc54)CC3)CC2)cc(C(=O)NCCN2CCN(CCCCC3CCN(CC(=O)N4c5ccccc5NC(=O)c5ccccc54)CC3)CC2)c1 (stereo not drawn)  koff (CHRM2; dissociation kinetics; CHO cell homogenates; 23 °C, added: 6 at 1000-fold excess): 0.000367 ± 3.33e-05 s⁻¹
C[C@]12CCC(=O)C=C1CCC1C2CC[C@]2(C)C(c3cccnc3)=CCC12 (stereo partly drawn)  conversion to DHEA (CYP17A1 (Homo sapiens, UniProt P05093); enzyme activity; HEK293 expressing CYP17A1; 1 nM, 3 h, added: [3H]pregnenolone): 4.2%
CCOc1cccc(C(=O)Nc2ccc(-c3nc4ccccc4[nH]3)cc2)c1  koff (Heat shock protein 90, N-terminal domain (Plasmodium falciparum, UniProt Q8IC05); binding, SPR): 0.000102 s⁻¹
COc1ccc(CN(CCCCCCC(=O)NO)Cc2ccc(OC)c(OC)c2)cc1OC  selectivity ratio (HDAC8; inhibitor; reference: IC50 HDAC8 over HDAC1): 7.8
Cc1cc(=O)oc2cc(NC(=O)CCCCCCC(=O)NO)ccc12  ΔCp (HDAC8; temperature-dependent ITC; Tris-HCl buffer; range from 5 °C): -0.11 ± 0.01 kcal mol^–1 K^–1
CCC(C)n1c(C(=O)Nc2cnc(C(=O)NC)n(CC(C)C)c2=O)ncc(NC(=O)c2ncc(NC(=O)c3ccccc3)c(=O)n2Cc2ccc(OC)cc2)c1=O (stereo not drawn)  radius of gyration (Heat shock protein HSP 90-alpha, C-terminal domain (HSP90AA1, Homo sapiens, UniProt P07900); SAXS; 230 µM, equimolar to protein): 3.46 nm
COC(=O)c1cccc([C@@H]2C[C@H]2NC2CCC2)c1  relative N-formyl-FAD adduct (Lysine-specific histone demethylase 1A, with CoREST (KDM1A, Homo sapiens, UniProt O60341); inhibitor, LC-MS; reference: total FAD species): 4%
[11CH3]Nc1ccc(-c2nc3ccc(O)cc3o2)cn1  distribution volume ratio (APP (Homo sapiens, UniProt P05067); binding, PET, reference Logan; Alzheimer's disease patients, grey matter; reference: cerebellum): 1.47 ± 0.11
O=c1c(-c2cnn(-c3ccc(Cl)cc3)c2)c(C(F)(F)F)oc2c(O)c(O)ccc12  effective concentration range (Cullin-1, in SCF-βTrCP2 complex (Homo sapiens, UniProt Q13616); IκBα and β-catenin ubiquitination by SCF-βTrCP2, inhibitor): ~30 µM
CCCCCCCC(=O)OC(C#N)c1ccc2cc(OC)ccc2c1 (racemic)  specific activity (FAAH; enzyme activity, substrate; 50 µM, pH 8, 37 °C): 640 pmol/min/µg
C=C(O[C@H]1C=CC=C(C(=O)O)[C@@H]1O)C(=O)O  apparent Km (Enterobactin synthase component B (entB, Escherichia coli, UniProt P0ADI4); isochorismatase activity, substrate, LDH-coupled; added: 2,3-dihydroxybenzoate 0 µM): 9.2 µM
CCCCSc1nc2c([nH]1)c(=S)n(C)c(=S)n2C  remaining activity (PGR; reporter gene, antagonist, MMTV-luciferase; T47D/A1-2; 10 µM, 24 h, added: 5 nM progesterone; reference: maximal activity): 51%
CCOC(=O)c1ccc(N2NC(=O)/C(=C/c3ccc([N+](=O)[O-])o3)C2=O)cc1  protein degradation (ODD-Luc reporter; inhibitor, cycloheximide chase luciferase; human cells; concentration not given): inhibited

Some of these lines once more:
CSCC[C@H](NC(=O)[C@H](CCCCN)NC(=O)[C@@H]1CCCN1C(=O)[C@H](CCC(=O)O)NC(=O)[C@H](CO)NC(=O)[C@H](CCCNC(=N)N)NC(=O)[C@H](C)NC(=O)[C@H](CS)NC(=O)CNC(=O)[C@@H](NC(=O)[C@@H]1CCCN1C(=O)[C@H](CC(N)=O)NC(=O)[C@@H](N)C(C)C)[C@@H](C)O)C(=O)N[C@@H](CO)C(N)=O  kon (WDR5 (Homo sapiens, UniProt P61964); binding, SPR): 490000 M⁻¹ s⁻¹
Cc1nc(N(C)C)nc(C)c1O  relative inhibitory potency (PTGS1 (Ovis aries, UniProt P05979); prostaglandin biosynthesis, inhibitor; concentration not given; reference: paracetamol): 25 fold
